Measurements pooled from the literature.
Numbers after ± are the reported error.
MAPK14: Mitogen-activated protein kinase 14 (MAPK14, Homo sapiens, UniProt Q16539)
Chain of UniProt Q16539 (whole entry, looked up): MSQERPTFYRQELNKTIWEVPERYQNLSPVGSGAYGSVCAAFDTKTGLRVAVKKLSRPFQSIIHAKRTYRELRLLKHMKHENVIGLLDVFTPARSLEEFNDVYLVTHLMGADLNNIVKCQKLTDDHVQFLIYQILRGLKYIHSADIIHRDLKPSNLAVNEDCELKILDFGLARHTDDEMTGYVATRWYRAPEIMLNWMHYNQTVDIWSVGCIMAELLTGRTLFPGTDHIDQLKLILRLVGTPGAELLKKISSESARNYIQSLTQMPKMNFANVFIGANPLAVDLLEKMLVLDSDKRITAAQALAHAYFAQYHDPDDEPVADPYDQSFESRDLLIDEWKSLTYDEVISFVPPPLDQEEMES
Seed linoleate 13S-lipoxygenase-1: Seed linoleate 13S-lipoxygenase-1 (Glycine max, UniProt P08170)
Chain of UniProt P08170 (whole entry, looked up): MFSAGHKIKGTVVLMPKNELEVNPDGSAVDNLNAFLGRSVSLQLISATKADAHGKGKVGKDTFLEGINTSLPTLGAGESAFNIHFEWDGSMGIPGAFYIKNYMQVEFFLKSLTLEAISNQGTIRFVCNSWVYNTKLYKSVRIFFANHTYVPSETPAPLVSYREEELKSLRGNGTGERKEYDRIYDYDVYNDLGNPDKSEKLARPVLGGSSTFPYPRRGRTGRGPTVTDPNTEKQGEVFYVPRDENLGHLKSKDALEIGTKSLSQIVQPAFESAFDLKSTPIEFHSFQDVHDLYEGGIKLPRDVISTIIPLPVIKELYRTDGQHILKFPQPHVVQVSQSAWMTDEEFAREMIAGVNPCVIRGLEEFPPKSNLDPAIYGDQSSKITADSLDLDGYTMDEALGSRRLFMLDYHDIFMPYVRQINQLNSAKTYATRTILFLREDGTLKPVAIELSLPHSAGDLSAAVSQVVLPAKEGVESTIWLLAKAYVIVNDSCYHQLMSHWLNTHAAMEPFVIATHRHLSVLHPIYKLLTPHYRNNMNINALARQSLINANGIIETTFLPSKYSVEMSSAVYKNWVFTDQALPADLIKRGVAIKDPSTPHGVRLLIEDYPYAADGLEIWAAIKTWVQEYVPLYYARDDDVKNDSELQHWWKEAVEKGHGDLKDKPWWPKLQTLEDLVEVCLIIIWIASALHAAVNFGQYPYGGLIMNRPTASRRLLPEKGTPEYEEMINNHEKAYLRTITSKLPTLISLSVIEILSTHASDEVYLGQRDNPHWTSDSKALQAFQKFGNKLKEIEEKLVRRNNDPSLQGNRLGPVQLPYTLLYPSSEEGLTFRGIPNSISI
TXNRD1: Thioredoxin reductase 1, cytoplasmic (TXNRD1, Homo sapiens, UniProt Q16881)
Chain of UniProt Q16881 (whole entry, looked up): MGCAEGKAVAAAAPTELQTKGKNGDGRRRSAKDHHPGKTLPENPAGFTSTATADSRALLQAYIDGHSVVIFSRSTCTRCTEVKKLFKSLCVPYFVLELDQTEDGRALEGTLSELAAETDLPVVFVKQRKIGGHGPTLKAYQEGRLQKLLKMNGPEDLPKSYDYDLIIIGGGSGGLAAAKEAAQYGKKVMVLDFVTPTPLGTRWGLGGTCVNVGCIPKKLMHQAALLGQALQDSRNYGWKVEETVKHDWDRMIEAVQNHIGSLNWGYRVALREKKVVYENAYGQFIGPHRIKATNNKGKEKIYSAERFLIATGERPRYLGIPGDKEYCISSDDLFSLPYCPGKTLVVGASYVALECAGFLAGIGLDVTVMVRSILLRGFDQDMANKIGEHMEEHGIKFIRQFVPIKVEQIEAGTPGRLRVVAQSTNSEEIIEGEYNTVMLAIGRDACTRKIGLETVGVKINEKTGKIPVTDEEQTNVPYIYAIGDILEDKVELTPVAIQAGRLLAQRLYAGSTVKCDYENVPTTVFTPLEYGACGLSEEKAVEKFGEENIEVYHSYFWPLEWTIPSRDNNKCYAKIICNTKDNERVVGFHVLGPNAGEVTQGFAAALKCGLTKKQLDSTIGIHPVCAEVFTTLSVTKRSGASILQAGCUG
Chain of UniProt C0HJB3 (whole entry, looked up): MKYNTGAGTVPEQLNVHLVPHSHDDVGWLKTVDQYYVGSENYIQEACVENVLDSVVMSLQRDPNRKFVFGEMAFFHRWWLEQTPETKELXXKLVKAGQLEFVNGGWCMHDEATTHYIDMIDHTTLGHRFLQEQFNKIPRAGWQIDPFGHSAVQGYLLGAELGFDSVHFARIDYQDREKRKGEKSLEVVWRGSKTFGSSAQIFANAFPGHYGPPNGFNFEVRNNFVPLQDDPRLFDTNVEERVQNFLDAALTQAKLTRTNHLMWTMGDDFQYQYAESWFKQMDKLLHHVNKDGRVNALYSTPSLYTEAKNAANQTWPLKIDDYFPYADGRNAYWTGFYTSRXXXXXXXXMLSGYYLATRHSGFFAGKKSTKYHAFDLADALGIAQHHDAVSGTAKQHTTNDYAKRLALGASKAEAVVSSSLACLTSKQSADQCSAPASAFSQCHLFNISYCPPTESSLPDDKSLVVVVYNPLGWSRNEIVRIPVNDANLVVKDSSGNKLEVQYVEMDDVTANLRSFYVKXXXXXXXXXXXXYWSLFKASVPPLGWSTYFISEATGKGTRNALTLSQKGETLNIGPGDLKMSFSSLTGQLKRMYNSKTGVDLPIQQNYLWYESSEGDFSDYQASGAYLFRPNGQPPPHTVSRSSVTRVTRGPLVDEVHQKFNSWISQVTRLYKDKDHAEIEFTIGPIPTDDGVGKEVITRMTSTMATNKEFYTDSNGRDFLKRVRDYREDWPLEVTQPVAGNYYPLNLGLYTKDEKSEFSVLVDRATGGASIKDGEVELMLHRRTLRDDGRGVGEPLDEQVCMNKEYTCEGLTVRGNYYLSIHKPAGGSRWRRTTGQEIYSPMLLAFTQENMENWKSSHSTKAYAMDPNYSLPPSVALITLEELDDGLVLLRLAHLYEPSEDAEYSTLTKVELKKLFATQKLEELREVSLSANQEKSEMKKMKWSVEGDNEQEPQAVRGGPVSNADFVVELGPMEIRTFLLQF
Chain of UniProt P30968 (whole entry, looked up): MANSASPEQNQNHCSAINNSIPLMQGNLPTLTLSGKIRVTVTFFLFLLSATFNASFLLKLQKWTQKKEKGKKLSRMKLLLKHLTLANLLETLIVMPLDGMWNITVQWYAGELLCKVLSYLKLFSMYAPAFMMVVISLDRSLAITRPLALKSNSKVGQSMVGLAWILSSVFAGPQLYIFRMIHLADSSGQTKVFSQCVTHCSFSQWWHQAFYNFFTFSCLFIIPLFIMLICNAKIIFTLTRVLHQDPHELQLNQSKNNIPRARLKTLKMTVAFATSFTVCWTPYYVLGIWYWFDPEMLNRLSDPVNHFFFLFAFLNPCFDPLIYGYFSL
Chain of UniProt P33527 (whole entry, looked up): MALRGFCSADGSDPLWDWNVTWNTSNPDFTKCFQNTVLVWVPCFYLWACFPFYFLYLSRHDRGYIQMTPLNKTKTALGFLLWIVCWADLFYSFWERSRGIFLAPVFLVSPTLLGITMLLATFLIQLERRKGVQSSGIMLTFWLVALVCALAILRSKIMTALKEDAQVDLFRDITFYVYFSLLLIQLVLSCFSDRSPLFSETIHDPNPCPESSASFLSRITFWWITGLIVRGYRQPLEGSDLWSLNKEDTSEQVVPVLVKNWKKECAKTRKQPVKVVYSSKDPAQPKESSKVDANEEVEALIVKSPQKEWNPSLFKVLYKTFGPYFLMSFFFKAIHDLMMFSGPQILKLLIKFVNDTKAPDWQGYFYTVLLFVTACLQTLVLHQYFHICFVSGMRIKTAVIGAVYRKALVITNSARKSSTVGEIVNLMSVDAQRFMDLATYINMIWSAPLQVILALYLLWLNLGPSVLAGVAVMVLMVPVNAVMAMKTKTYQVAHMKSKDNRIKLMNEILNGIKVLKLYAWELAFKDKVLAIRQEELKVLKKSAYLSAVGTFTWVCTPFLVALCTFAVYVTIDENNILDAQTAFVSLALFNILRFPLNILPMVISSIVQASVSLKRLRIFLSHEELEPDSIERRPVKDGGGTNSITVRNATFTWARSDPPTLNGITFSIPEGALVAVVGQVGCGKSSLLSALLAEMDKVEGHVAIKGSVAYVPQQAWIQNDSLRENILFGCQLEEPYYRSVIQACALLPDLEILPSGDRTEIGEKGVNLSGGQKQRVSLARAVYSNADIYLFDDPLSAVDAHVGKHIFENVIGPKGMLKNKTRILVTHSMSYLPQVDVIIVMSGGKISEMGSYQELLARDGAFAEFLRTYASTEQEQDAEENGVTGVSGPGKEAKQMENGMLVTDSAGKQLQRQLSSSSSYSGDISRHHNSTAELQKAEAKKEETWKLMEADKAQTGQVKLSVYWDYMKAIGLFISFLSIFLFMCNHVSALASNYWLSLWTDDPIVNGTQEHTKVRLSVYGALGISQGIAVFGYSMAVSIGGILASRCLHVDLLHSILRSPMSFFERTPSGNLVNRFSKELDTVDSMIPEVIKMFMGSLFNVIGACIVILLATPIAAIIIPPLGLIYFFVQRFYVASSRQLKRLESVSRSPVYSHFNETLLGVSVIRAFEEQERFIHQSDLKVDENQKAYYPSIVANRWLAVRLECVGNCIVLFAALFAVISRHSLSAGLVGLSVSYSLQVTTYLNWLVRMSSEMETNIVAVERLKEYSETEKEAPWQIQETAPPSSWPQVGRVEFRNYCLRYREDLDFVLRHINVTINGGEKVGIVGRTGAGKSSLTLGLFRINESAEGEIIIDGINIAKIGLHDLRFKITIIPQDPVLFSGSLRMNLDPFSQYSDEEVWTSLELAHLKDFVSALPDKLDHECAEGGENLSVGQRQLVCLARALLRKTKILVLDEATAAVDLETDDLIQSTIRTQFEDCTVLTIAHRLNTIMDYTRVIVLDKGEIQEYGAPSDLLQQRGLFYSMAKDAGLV

Compound	tested on	test	system	setting	scale	quantity	value
CCCCCC[N+](CCCCCC)(CCCCCC)CCCCCC	Kcnk2 (Rattus norvegicus, UniProt Q920B6)	ion current, inhibitor		1 µM, oocytes		inhibition	~50%
CC(=O)c1cnc(N)nc1N1CC[C@H]1c1nn2ccc(Cl)c2c(=O)n1-c1ccccc1	KCNJ2 (Homo sapiens, UniProt P63252)	ion current, inhibitor		3 µM		inhibition	< 10%
COc1cc(OC)c2c(c1)C(=O)c1cc3oc(=O)cc(-c4ccc(Cl)cc4)c3c(O)c1C2=O	mushroom tyrosinase	enzyme activity		25 µg/mL, with: L-DOPA		inhibition	27.71 ± 0.23%
CC(Oc1nc(-c2ccccc2)nc2ccccc12)C(=O)N(C)c1ccccc1 (stereo not drawn)	human leukocytes	binding			relative to: LAB over HAB genotype	Ki ratio	1 ± 1
O=C1NCCN=C1CC(=O)c1ccccc1	MAPK14	primary fragment screen		1 mM, with: ATP 10 µM		inhibition	92.3%
CCc1ccccc1NC(=O)C(C)Sc1nnc(C2CCN(C(=O)Nc3ccccc3)CC2)n1CC (stereo not drawn)	Seed linoleate 13S-lipoxygenase-1	enzyme activity, inhibitor		250 µM		inhibition	87.3%
C=CC(=O)Nc1cc(Nc2nccc(-c3cn(C)c4ccccc34)n2)c(OCC(F)(F)F)nc1N(C)CCN(C)C	Cytochrome P450 2C9 (CYP2C9, Homo sapiens, UniProt P11712)	enzyme activity, inhibitor	human, liver microsomes	33.3 µM		activity vs control	99.9%
O=C1C[C@@H](c2ccc(O)c(O)c2)c2c(cc(O)c3c2O[C@H](c2ccc(O)c(O)c2)[C@H](O)C3)O1	DPP4 (Sus scrofa, UniProt P22411)	enzyme activity, inhibitor, absorbance		50 µg/mL		inhibition	37.8%
O=C(NC1CCCCC1)N1CCCN2CCC(c3ccc(C#Cc4ccccc4)cc3)C2C1 (stereo not drawn)	Toxoplasma gondii	parasite growth	HFF, RH type I luciferase			EC90	> 10 µM
CCn1c(SC(C)C(=O)NCc2ccccc2)nnc1C1CCN(C(=O)Nc2ccccc2)CC1 (stereo not drawn)	Seed linoleate 13S-lipoxygenase-1	enzyme activity, inhibitor		250 µM		inhibition	88.5%
[64Cu+2].c1cnc(CNCc2ccc(CN3CCCN4CCNCCCN(CC4)CC3)cc2)nc1	CXCR4		NOD/SCID mouse, U87 and U87-stb-CXCR4 xenografts, spleen	iv, 120 min, ex vivo		tissue uptake	15.8 ± 4.04 %ID/g
Cc1cc(O)cc2c1C(=O)c1c(cc3oc(=O)cc(C)c3c1O)C2=O	mushroom tyrosinase	enzyme activity		25 µg/mL, with: L-DOPA		inhibition	32.53 ± 0.01%
O=C([O-])CN1CCN(CC(=O)[O-])CCN(CC(=O)NCCc2ccc3c(c2)C2C=CCC2C(c2cc4c(cc2Br)OCO4)N3)CCN(CC(=O)[O-])CC1.[111In+3] (stereo not drawn)	Hec50 tumour model		host not given, bone	1 h, tumour-bearing		tracer uptake	0.85 %ID/g
Cc1cc(O)c2c(c1)C(=O)c1cc3oc(=O)cc(C)c3c(O)c1C2=O	mushroom tyrosinase	enzyme activity		25 µg/mL, with: L-DOPA		inhibition	12.1 ± 0.74%
N#Cc1ccc(-c2ccc(C=NOCc3ccc(-c4nc5cc(-c6ccccc6)ccn5c4Nc4ccc(C(=O)O)cc4)cc3)cc2)nc1	TDP1 (Homo sapiens, UniProt Q9NUW8)	enzyme activity, inhibitor		100 µM		inhibition	99%
CC(C)(C)CCN1C[C@@H]2[C@@H](CNC(=O)c3cc(Cl)cc(Cl)c3)[C@@H]2C1.Cl	Voltage-dependent L-type calcium channel subunit alpha-1F (Homo sapiens, UniProt O60840, M1004A)	calcium current, whole-cell patch clamp	HEK-293T transfected	10 µM, M1004A mutant		inhibition	~50%
O=C(Nc1cccc(Cl)c1)c1c[nH]cn1	MAPK14	primary fragment screen		1 mM, with: ATP 10 µM		inhibition	57.6%
Cc1cc(O)cc2c1C(=O)c1c(cc3oc(=O)cc(-c4ccc(Cl)cc4)c3c1O)C2=O	mushroom tyrosinase	enzyme activity		50 µg/mL, with: L-DOPA		inhibition	47.56 ± 0.22%
[64Cu+2].c1ccc(CNCc2ccc(CN3CCCN4CCNCCCN(CC4)CC3)cc2)nc1	CXCR4		NOD/SCID mouse, U87 and U87-stb-CXCR4 xenografts, stomach	iv, 480 min, ex vivo		tissue uptake	1.91 ± 0.23 %ID/g
Cc1cc(O)c2c(c1)C(=O)c1cc3oc(=O)cc(-c4ccc(O)cc4)c3c(O)c1C2=O	mushroom tyrosinase	enzyme activity		50 µg/mL, with: L-DOPA		inhibition	26.5 ± 0.32%
CC(C)C[C@H](NC(=O)[C@@H](CCCCNC(=O)CCCCCNC(=O)CN1CCN(CC(=O)O)CCN(CC(=O)O)CCN(CC(=O)O)CC1)NC(=O)[C@H](Cc1ccc(O)cc1)NC(=O)[C@H](CO)NC(=O)[C@H](Cc1c[nH]c2ccccc12)NC(=O)[C@H](Cc1c[nH]cn1)NC(=O)[C@@H]1CCC(=O)N1)C(=O)N[C@@H](CCCNC(=N)N)C(=O)N1CCC[C@H]1C(=O)NCC(N)=O [indium-111 labelled]	GNRHR (Homo sapiens, UniProt P30968)	radioligand binding		concentration not given, 3 h, 25 °C, with: DOTA-Ahx-D-Lys6-GnRH1 1 µM		inhibition	86%
FC(F)(F)c1csc(Nc2ccc(Cl)c(Cl)c2)n1	Kinesin-like protein KIF15, residues 1-700 (Homo sapiens, UniProt Q9NS87)	microtubule gliding		100 µM, after washout		inhibition	> 90%
Nc1nc(Nc2ccccc2)sc1C(=O)c1ccccc1	HIPK2 (Homo sapiens, UniProt Q9H2X6)	enzyme activity, inhibitor		10 µM		inhibition	> 90%

Compound	tested on	test	system	setting	scale	quantity	value
CO.COc1ccc2c(c1)c(CC(=O)[O-])c(C)n2C(=O)c1ccc(Cl)cc1.COc1ccc2c(c1)c(CC(=O)[O-])c(C)n2C(=O)c1ccc(Cl)cc1.O.[Co+2].c1ccc(Nc2ccccn2)nc1	calf thymus DNA	cyclic voltammetry	DMSO/buffer	Co(II)/Co(I) couple, without DNA		cathodic peak potential	-680 mV
CC[C@H](C)[C@H](NC(=O)[C@H](Cc1c[nH]cn1)NC(=O)[C@H](CCCNC(=N)N)NC(=O)[C@H](CCCNC(=N)N)NC(=O)[C@H](CCCNC(=N)N)NC(C)=O)C(=O)N[C@H](C(=O)N[C@@H](CCCNC(=N)N)C(=O)N[C@@H](CCCCN)C(=O)N[C@@H](CCCNC(=N)N)C(=O)N[C@H](C(=O)N[C@@H](CC(C)C)C(=O)N[C@@H](CCCNC(=N)N)C(=O)N[C@@H](CCCNC(=N)N)C(=O)N[C@@H](CC(C)C)C(=O)N[C@@H](CC(C)C)C(=O)N[C@@H](CCC(N)=O)C(N)=O)[C@@H](C)O)C(C)C			PC/PIP2 99:1 vesicles			molar partition coefficient	60000 M⁻¹
COc1ccccc1CCn1c2c(c3c1-c1ccccc1C3=O)C(=O)CCC2	ABCC1 (Homo sapiens, UniProt P33527)	calcein efflux	HEK293 expressing MRP1	2 µM	relative to: verapamil 35 µM as 100%	inhibition	inhibited
COc1c2c(cc3oc(=O)cc(C)c13)C(=O)c1cc(C)cc(O)c1C2=O	mushroom tyrosinase	enzyme activity		100 µg/mL, with: L-DOPA		inhibition	44.58 ± 0.36%
CC(Oc1cc(-c2ccccc2)nc2cccnc12)C(=O)N(C)c1ccccc1 (stereo not drawn)	human leukocytes	binding			relative to: LAB over HAB genotype	Ki ratio	21 ± 8
COc1cc(/C=C/C(=O)CC(C)=O)ccc1O	TXNRD1	enzyme activity	MCF7	25 µM, 48 h		inhibition	55%
O=c1c2ccccc2ncn1-c1ccccc1F	MAPK14	primary fragment screen		1 mM, with: ATP 10 µM		inhibition	67.6%
COc1c2c(cc3oc(=O)cc(-c4ccccc4)c13)C(=O)c1cc(C)cc(O)c1C2=O	mushroom tyrosinase	enzyme activity		25 µg/mL, with: L-DOPA		inhibition	44.58 ± 0.23%
O=C1c2ccccc2C(=O)c2c1ccc1c2C(C(=O)Nc2ccc(Br)cc2)C(=O)C1c1ccccc1 (stereo not drawn)	mushroom tyrosinase	enzyme activity, inhibitor, spectrophotometry		50 µg/mL, with: L-DOPA substrate		inhibition	61.9 ± 1.32%
Oc1cc(-c2ccccc2Cl)[nH]n1	MAPK14	primary fragment screen		1 mM, with: ATP 10 µM		inhibition	19.4%
CC(=O)N[C@H](C(=O)N[C@H](C(=O)N[C@@H](CCCNC(=N)N)C(=O)N1Cc2ccccc2C[C@H]1C(=O)N[C@@H](Cc1ccccc1)C(N)=O)C1CCCCC1)C(C)C	human PBMC	Bio-Plex multiplex, refers to: PDGF-bb		500 µg/mL, 24 h		cytokine level	1250 ± 710 pg/mL
COc1c2c(cc3oc(=O)cc(-c4ccc(Cl)cc4)c13)C(=O)c1cc(C)cc(O)c1C2=O	mushroom tyrosinase	enzyme activity		25 µg/mL, with: L-DOPA		inhibition	69.6 ± 0.74%
O=C1c2ccccc2C(=O)c2c1ccc1c2C(C(=O)Nc2ccc(Cl)cc2)C(=O)C1c1ccccc1 (stereo not drawn)	mushroom tyrosinase	enzyme activity, inhibitor, spectrophotometry		100 µg/mL, with: L-DOPA substrate		inhibition	45.6 ± 0.26%
Oc1ccc(CCC(O)CC(O)CCc2ccc(O)cc2)cc1 (stereo not drawn)	Dopamine beta-hydroxylase (Bos taurus, UniProt P15101)	enzyme activity, inhibitor		100 µg/mL		inhibition	25.6%
OC[C@H]1[C@@H](O)[C@@H](O)CN1Cc1ccc(Br)cc1	Alpha-mannosidase (Canavalia ensiformis, UniProt C0HJB3)	enzyme activity, inhibitor, absorbance		2 mM		inhibition	8%
Cc1ccc2c(c1)C(O)(CC(=O)c1ccc3c(c1)OCCO3)C(=O)N2 (stereo not drawn)	Uncharacterized protein (Trypanosoma brucei brucei, UniProt Q386Q8)	enzyme activity, inhibitor, coupled colorimetric	Trypanosoma brucei	100 µM		inhibition	0%
COc1ccc(NC(=O)C2C(=O)C(c3ccccc3)c3ccc4c(c32)C(=O)c2ccccc2C4=O)cc1 (stereo not drawn)	mushroom tyrosinase	enzyme activity, inhibitor, spectrophotometry		50 µg/mL, with: L-DOPA substrate		inhibition	28.11 ± 0.23%
Cc1ccccc1CN1CCN(C(=O)c2cccnc2)CC1	MAPK14	primary fragment screen		1 mM, with: ATP 10 µM		inhibition	67%
O=C(NCCCN1CCOCC1)c1ccc(-n2ncc(Cl)c(Cl)c2=O)cc1	TXNRD1	enzyme activity in cells, inhibitor	FaDu	1 µM		inhibition	~40%
N=C(N)NCCC[C@@H]1NC(=O)[C@H](CCCCNC(=O)CC[C@H](NC(=O)CC[C@H](NC(=O)CN2CCN(CC(=O)O)CCN(CC(=O)O)CCN(CC(=O)O)CC2)C(=O)N[C@@H](CCC(=O)NCCCC[C@@H]2NC(=O)[C@@H](Cc3ccccc3)NC(=O)[C@H](CC(=O)O)NC(=O)CNC(=O)[C@H](CCCNC(=N)N)NC2=O)C(=O)NCCCC[C@@H]2NC(=O)[C@@H](Cc3ccccc3)NC(=O)[C@H](CC(=O)O)NC(=O)CNC(=O)[C@H](CCCNC(=N)N)NC2=O)C(=O)NCCCC[C@@H]2NC(=O)[C@@H](Cc3ccccc3)NC(=O)[C@H](CC(=O)O)NC(=O)CNC(=O)[C@H](CCCNC(=N)N)NC2=O)NC(=O)[C@@H](Cc2ccccc2)NC(=O)[C@H](CC(=O)O)NC(=O)CNC1=O [indium-111 labelled]			female athymic nu/nu mice, kidney	intravenous, 72 h		tissue uptake	3.48 ± 1.1 %ID/g
CC(=O)Nc1cc(COc2c(Cl)cc(CC(N)C(=O)O)cc2Cl)c2oc(-c3ccccc3)nc2c1 (stereo not drawn)	SLC43A2 (Homo sapiens, UniProt Q8N370)	leucine uptake	Xenopus oocytes	1 and 10 µM, 30 min, with: L-[14C]leucine 50 µM		inhibition	no inhibition
COc1cc(C(=O)NC2CCC(N3CCN(CC4CCC5(CCCC5)C4)CC3)CC2)c(F)cc1Nc1ncc2c(n1)N(C1CCCC1(F)F)CC(F)(F)C(=O)N2C (stereo not drawn)	FGFR2 (Homo sapiens, UniProt P21802)	cell-free assay, TR-FRET		10 µM		inhibition	0.75%

Excerpt of the above:
Compound	tested on	test	system	setting	scale	quantity	value
Oc1ccc(CCC(O)CC(O)CCc2ccc(O)cc2)cc1 (stereo not drawn)	Dopamine beta-hydroxylase (Bos taurus, UniProt P15101)	enzyme activity, inhibitor		100 µg/mL		inhibition	25.6%
O=C1c2ccccc2C(=O)c2c1ccc1c2C(C(=O)Nc2ccc(Cl)cc2)C(=O)C1c1ccccc1 (stereo not drawn)	mushroom tyrosinase	enzyme activity, inhibitor, spectrophotometry		100 µg/mL, with: L-DOPA substrate		inhibition	45.6 ± 0.26%
CC(C)(C)CCN1C[C@@H]2[C@@H](CNC(=O)c3cc(Cl)cc(Cl)c3)[C@@H]2C1.Cl	Voltage-dependent L-type calcium channel subunit alpha-1F (Homo sapiens, UniProt O60840, M1004A)	calcium current, whole-cell patch clamp	HEK-293T transfected	10 µM, M1004A mutant		inhibition	~50%
COc1ccccc1CCn1c2c(c3c1-c1ccccc1C3=O)C(=O)CCC2	ABCC1 (Homo sapiens, UniProt P33527)	calcein efflux	HEK293 expressing MRP1	2 µM	relative to: verapamil 35 µM as 100%	inhibition	inhibited
Cc1ccc2c(c1)C(O)(CC(=O)c1ccc3c(c1)OCCO3)C(=O)N2 (stereo not drawn)	Uncharacterized protein (Trypanosoma brucei brucei, UniProt Q386Q8)	enzyme activity, inhibitor, coupled colorimetric	Trypanosoma brucei	100 µM		inhibition	0%
O=C(Nc1cccc(Cl)c1)c1c[nH]cn1	MAPK14	primary fragment screen		1 mM, with: ATP 10 µM		inhibition	57.6%
